# Results of several laboratories.
# Lines come from different studies, so protocols differ. Values joined by “and” are separate records of one study, mostly repeats; a detail may differ. ± gives the spread as reported.
Compound,organism,test,test system,conditions,scale,quantity,result
COC(=O)[C@@H](N)[C@@H](C)OP1(=O)CO[C@@H](Cn2cnc3c(N)ncnc32)CO1 (stereo partly shown),human cytomegalovirus,viral replication,,,,IC50,620 nM
CSCC[C@H](NC(=O)[C@H](CCCCN)NC(=O)[C@H](CCSC)NC(=O)[C@H](CCCCN)NC(=O)[C@H](CC(C)C)NC(=O)[C@H](CC(C)C)NC(=O)[C@H](CCCNC(=N)N)NC(=O)[C@H](CC(=O)O)NC(=O)[C@H](CCCCN)NC(=O)[C@H](Cc1c[nH]c2ccccc12)NC(=O)[C@H](Cc1ccc(O)cc1)NC(=O)[C@H](Cc1ccccc1)NC(=O)[C@H](CCCNC(=N)N)NC(=O)[C@@H]1CCCN1C(=O)[C@@H](NC(=O)[C@H](CCCNC(=N)N)NC(=O)[C@@H](N)CO)C(C)C)C(=O)N[C@@H](C)C(=O)O,Micrococcus luteus,,NCTC 2665,,,MBC,128 µg/mL
O=C(NCCc1ncc(C(F)(F)F)cc1Cl)c1ccccc1C(F)(F)F,Botryosphaeria dothidea,"fungal growth, inhibitor",,50 µg/mL,,inhibition,64 ± 1.3%
CS(=O)(=O)CCCn1c(Cn2c(=O)n(CC(F)(F)F)c3ccncc32)cc2cc(Cl)ccc21,respiratory syncytial virus,RT-qPCR,"hospitalized infants 1-24 months, nasal swab","oral, 6, 4.5 or 3 mg/kg daily, day 6, mid dose by age cohort",relative to: placebo,LS mean difference vs placebo,-1.78 log10 copies/mL
CN1CCN(S(=O)(=O)c2cc([N+](=O)[O-])ccc2N(CCOS(C)(=O)=O)CCOS(C)(=O)=O)CC1,Homo sapiens,"cell viability, resazurin or CellTiter-Glo","sample A BCP-ALL PDX cells, ex vivo",48 h,,IC50,382 nM
Cl.N=C(CC(O)c1cc2c(F)cc(F)cc2c2cc(C(F)(F)F)ccc12)Nc1ccc(Br)cc1 (stereo not shown),Plasmodium berghei,Peters 4-day test,"ANKA, mouse","oral, 3 mg/kg",,cure rate,0%
CC[C@H](C)[C@H](NC(=O)[C@H](C)NC(=O)[C@H](CCCCN)NC(=O)[C@H](CC(C)C)NC(=O)[C@H](C)NC(=O)[C@@H](NC(=O)[C@H](Cc1c[nH]cn1)NC(=O)[C@H](CC(C)C)NC(=O)[C@@H](NC(=O)[C@@H](NC(=O)[C@H](CCCCN)NC(=O)[C@H](C)NC(=O)[C@H](C)NC(=O)[C@H](CO)NC(=O)[C@H](CCCCN)NC(=O)[C@H](Cc1ccccc1)NC(=O)[C@@H](NC(=O)[C@H](CCCCN)NC(=O)[C@H](CC(C)C)NC(=O)[C@H](Cc1ccccc1)NC(=O)[C@H](CO)NC(=O)[C@H](CCCCN)NC(=O)[C@H](Cc1c[nH]c2ccccc12)NC(=O)[C@H](CCCCN)NC(C)=O)[C@@H](C)O)[C@@H](C)O)C(C)C)[C@@H](C)O)C(=O)N[C@@H](CO)C(=O)N[C@@H](CO)C(N)=O,Acinetobacter baumannii,,,33 strains,,MIC50,2 µg/mL
Nc1nc(O)c2ncn(COC(CO)CO)c2n1,feline herpesvirus,"viral cytopathic effect, MTS",CRFK,,,EC50,2000 nM
CCCCCCCCCCCc1c([N+](=O)[O-])oc2ccc3ccccc3c12,Mycobacterium marinum,REMA,ATCC BAA-535,,,MIC90,> 32 µg/mL
O=c1c(O)c(-c2ccc(O)c(O)c2)oc2c(O)c(O)cc(O)c12,Drosophila melanogaster,fluorescence,,"liquid food, 40 µg/mL, first instar larvae",relative to: solvent,fluorescein ingestion,-32.2%
CCCCc1ccc(CNc2nc(N(C)C)nc(N(C)C)c2/N=N/c2ccc(Cl)cc2)cc1,Ostrinia furnacalis,leaf dipping,,3.13 mg/L,,mortality,26.7%
Nc1ncnc2c1ncn2[C@@H]1O[C@@H]2COP(=O)(O)O[C@H]3[C@@H](O)[C@H](n4cnc5c(=O)[nH]cnc54)O[C@@H]3COP(=O)(O)O[C@H]2[C@H]1O,Zika virus,"downregulated Reactome pathway, RNA sequencing, refers to: Elastic fibre formation (R-HSA-1566948)",HFF-1,,relative to: ZIKV-infected untreated,fold enrichment,11.1
CNC(=O)c1cc(Cl)cc(C)c1NC(=O)c1cc(Br)nn1-c1ncccc1Cl,Plutella xylostella,,Raphanus sativus field plot,"25 ppm, 72 h, 5% water-dispersible granule",,larval viability,12.1% and 7.5% and 6.1%
